Measured values from different studies.
Parts stem from different laboratories: compare values within a part only. Substitutions count along the parent as printed.

Set 1 — technique: RNA Bind-n-Seq; molecule type: RNA; sample: in vitro; tested at: 200 nM; notes: whole 134-nt RNA, ends assumed; together with: 150 mM KCl; relative to: input library; direction: higher = stronger binding; quantity: log2 enrichment
Target: Fragile X messenger ribonucleoprotein 1, C-terminal low-complexity region (Fmr1, Mus musculus, UniProt P35922)
All sequences stand within: GGGAGUUCUACAGUCCGACGAUC … UGGAAUUCUCGGGUGUCAAGG
Sequence = AGUCCUGUGCUACACAUCGUAUGUACCGAAUCGGGGUUUUGGUUUUGGGGUUUUGGGAAAGUAUUAUGUUACGCCGUUCGGAUCUGCACU; value = 0.267
Sequence = CUGUGCUACACAUCGUAUGUACCGAAUCGGGGAAAAAAAGGGGAAAAAAAGGGGUUUGGGGAAAGUAUUAUGUUACGCCGUUCGGAUCUG; value = -0.511
Sequence = UCCUGUGCUACACAUCGUAUGUACCGAAUCGGGAAAAAAGGGGAAAAAAGGAAAAAAGGGAAAGUAUUAUGUUACGCCGUUCGGAUCUGC; value = -0.266
Sequence = CCUGUGCUACACAUCGUAUGUACCGAAUCGGGCCCCCCCGGGCCCCCCCGGGCCCCCCCGGAAAGUAUUAUGUUACGCCGUUCGGAUCUG; value = -0.73
Sequence = UGGGAGGUGGAUUUUGUUUAUUUUUUUAGCUCAUUUCCAGGGGUGGGAAUUUUUUUUUAAUAUGUGUCAUGAAGAAAGUUGUUUUUGAAA; value = 0.331
Sequence = AGUCCUGUGCUACACAUCGUAUGUACCGAAUCGGGAAAAAGGGAAAAAGGGAAAAAGGAAAGUAUUAUGUUACGCCGUUCGGAUCUGCAC; value = -0.418
Sequence = CACAGACAACACGCACCCACACAGACACAGAGGGAAGGGGUUGGGAUGGGGACAGGGUGCACAGCAGGGCGGGGUAGGACCCUAGCCCCU; value = 1.27
Sequence = CCAGGAAGUAAAAACAAAUGGAAAUGCUUCGGAUAGUGGCAGGGGUGGGGGUUGCUAAGGAAAGGGUGGGAUGGGAGUGGGUAAAGAGUU; value = 0.509

Set 2 — technique: universal PBM; molecule type: double-stranded DNA, one strand shown; sample: in vitro; tested at: 600 nM; direction: higher = stronger binding; quantity: E-score
Target: Sal-like protein 4, full length isoform A (SALL4, Homo sapiens, UniProt Q9UJQ4, residues 1-1053)
Sequence of UniProt Q9UJQ4 (whole entry, looked up): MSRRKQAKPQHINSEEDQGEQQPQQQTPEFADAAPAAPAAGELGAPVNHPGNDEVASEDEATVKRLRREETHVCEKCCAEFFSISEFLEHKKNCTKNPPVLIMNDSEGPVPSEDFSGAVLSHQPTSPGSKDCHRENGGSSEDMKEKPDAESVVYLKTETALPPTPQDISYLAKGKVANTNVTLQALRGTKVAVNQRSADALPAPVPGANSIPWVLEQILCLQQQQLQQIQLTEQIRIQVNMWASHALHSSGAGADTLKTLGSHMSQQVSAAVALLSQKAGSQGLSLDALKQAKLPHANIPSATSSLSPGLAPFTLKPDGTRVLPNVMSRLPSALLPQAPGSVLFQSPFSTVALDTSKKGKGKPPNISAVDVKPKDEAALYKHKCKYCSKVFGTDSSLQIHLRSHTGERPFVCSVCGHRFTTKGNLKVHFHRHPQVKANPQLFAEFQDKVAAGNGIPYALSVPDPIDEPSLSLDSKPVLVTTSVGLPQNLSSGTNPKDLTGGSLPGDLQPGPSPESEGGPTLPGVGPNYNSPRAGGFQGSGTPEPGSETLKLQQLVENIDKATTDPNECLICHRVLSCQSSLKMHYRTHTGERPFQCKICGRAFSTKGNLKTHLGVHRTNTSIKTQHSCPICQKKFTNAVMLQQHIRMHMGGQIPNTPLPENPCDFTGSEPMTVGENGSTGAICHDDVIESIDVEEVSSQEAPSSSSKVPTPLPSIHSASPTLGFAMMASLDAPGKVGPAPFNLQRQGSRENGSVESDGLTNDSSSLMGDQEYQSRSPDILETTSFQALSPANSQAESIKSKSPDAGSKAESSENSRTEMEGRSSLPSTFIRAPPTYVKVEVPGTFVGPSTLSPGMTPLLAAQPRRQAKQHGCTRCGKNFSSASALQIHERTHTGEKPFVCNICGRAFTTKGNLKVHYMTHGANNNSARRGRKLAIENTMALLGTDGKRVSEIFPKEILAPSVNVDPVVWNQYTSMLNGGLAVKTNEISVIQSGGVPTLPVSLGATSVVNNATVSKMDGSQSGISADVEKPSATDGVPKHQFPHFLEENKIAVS
Notes: 8-mer, flanks averaged, mean of replicates
Sequence = ACCCCTAT; value = -0.117
Sequence = TACTAGCA; value = 0.11
Sequence = ATAACACC; value = 0.233
Sequence = CCTGCAAC; value = -0.0527
Sequence = GCGTCGTA; value = 0.062
Sequence = ATTGCTGC; value = -0.0442
Sequence = ACATAGGT; value = 0.163
Sequence = ACAAATTG; value = 0.168
Sequence = CACGACAC; value = -0.0392

Set 3 — target: CCNF, cyclin fold, Cln2 fusion (human); technique: yeast growth competition, sequencing; sample: yeast; notes: strong parent motif; relative to: not given; direction: higher = stronger binding; quantity: normalised enrichment score
Starting sequence: WEE1 docking peptide (human); HKTFRKLRLFDTP; partner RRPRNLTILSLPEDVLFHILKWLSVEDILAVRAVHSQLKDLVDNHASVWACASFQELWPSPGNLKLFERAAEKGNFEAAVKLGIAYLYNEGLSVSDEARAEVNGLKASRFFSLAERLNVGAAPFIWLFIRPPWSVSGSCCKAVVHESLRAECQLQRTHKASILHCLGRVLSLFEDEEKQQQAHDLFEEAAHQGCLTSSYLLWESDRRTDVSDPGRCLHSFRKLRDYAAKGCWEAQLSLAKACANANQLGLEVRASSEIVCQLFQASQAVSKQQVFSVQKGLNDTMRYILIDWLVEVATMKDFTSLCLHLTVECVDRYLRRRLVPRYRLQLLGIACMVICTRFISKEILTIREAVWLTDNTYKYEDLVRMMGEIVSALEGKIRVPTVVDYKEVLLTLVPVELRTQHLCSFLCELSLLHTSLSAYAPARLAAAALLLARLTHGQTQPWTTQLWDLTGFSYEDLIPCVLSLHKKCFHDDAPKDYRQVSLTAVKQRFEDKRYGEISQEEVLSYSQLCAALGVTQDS
Change = SKTFRKLRLFDTP [H1S]; value = 2.85
Change = HKHFRKLRLFDTP [T3H]; value = 2.3
Change = HKTFRKLRLFDTE [P13E]; value = 1.45
Change = HKTFCKLRLFDTP [R5C]; value = 1.2
Change = HKTFRKLWLFDTP [R8W]; value = 3.94
Change = HKTFRKLRIFDTP [L9I]; value = 0.967
Change = HKTFRKLRQFDTP [L9Q]; value = 1.93

Set 4 — technique: Sort-seq; refers to: YFP reporter; sample: E. coli; notes: PhoQ-PhoP variant library; together with: 10 µM Mg2+; relative to: high Mg2+ state; direction: higher = stronger signaling; quantity: fold induction
Molecule: PhoQ, residues 284 288 289 292 302 303 NLMGRA
target = PhoP, residues 12 14 15 18 19 NYFRM (Escherichia coli, UniProt P23836); value = 5.19
target = PhoP, residues 12 14 15 18 19 QYFSL (Escherichia coli, UniProt P23836); value = 3.83
target = PhoP, residues 12 14 15 18 19 TQALL (Escherichia coli, UniProt P23836); value = 11.9
